Published values of several laboratories.
Every numbered part comes from another study and shows a few of its results, in no order. Changes are numbered by the printed parent chain.

Study 1
Target: RING finger protein unkempt homolog, zinc fingers 1-6, GST-SBP tag (UNK, Homo sapiens, UniProt Q9C0B0, residues 30-357)
Technique: RNA Bind-n-Seq
Molecule type: RNA
Medium: in vitro
Tested at: not given
Setting: RNA with constant flanks, ends assumed
Reference: input RNA pool
Reading: higher = stronger binding
Construct (chain): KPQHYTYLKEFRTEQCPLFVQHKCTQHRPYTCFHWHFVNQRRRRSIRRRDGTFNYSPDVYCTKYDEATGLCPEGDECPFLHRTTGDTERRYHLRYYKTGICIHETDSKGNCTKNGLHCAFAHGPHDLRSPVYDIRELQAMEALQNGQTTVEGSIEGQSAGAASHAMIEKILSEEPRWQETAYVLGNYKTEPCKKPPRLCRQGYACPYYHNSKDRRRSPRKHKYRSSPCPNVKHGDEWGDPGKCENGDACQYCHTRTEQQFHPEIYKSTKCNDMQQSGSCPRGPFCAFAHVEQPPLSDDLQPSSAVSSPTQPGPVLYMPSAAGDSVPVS
Strand	bound/input enrichment [ratio]
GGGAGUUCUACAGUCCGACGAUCGGAUUCCGGUUCCGGUGGGCCUCCAUCAGCAAGCUCCAGUGCUACGUGUCCCUGGCAUUUCCGGUGUCGGUUGGGUAGGCAGUCAUGGAUCAGGUAAUGCAGUUUGUUGAGCCAAGUCGGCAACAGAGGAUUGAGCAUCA	0.202
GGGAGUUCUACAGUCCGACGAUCAUCAUGGCUACAAACAGACCAGAUACACUGGAUCCUGCUUUGCUGCGUCCAGGAAGAUCCGACCGAAAAAUACAUAUUGAUUUGCCAAAUGAACAAGCAAGAUUAGACAUACUGAAAAUCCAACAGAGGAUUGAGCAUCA	1.89
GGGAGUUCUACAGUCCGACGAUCAAGAAUCUGAGGACCCGACACCUACAAAUUUGCCGUUAUUCCCACUUCUUGAUGAAGGAACCGCCCGAUGAACAAAGUGUUCUGCAGAGGCCUUUUAUGUGUUUAUGUGGUCCUCAAAGACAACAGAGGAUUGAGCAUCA	0.148
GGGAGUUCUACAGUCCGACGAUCAAUAUCAUUCCUAGUACCUUUUUGCCUAAACAAGAAGGACCUUUUUUCUUGGACUUUAACCGUAUUAUCCCCAUCAAGAUCACACAACUUCAGUGAUGGAGAAAUCUCAAGUUACUGGCUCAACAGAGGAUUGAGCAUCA	0.328
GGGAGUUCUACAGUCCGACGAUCUCACUGCAGUCUUCCCUGGGUCUUCCCUUCAAAUGCCCAUGGCGUUUAUCCUUCUCCCUCUCCCGAAAUGUACUCGACUGUUAUAACGAGGGAGUGUGAUUGGGUCUCUGUAGGUCUCUGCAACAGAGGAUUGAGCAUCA	0.175
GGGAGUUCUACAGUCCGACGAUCCAGCAGACCUGCCCACUGUGCAAAUUCAACGUCCUGGGGAACCGCUACUCCGAUGAUCCGCUGCCCAGCUGGACUCUGCACAUGGGGAUGGACCCUUCCUGCCUGCACCCCGGUCCUCAGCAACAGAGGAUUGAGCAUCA	0.106
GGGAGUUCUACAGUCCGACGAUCGAGGAGGACAAAGAGCCCCUCAUCGAGCUCUUCGUCAAGGCUGGCAGUGAUGGUGAAAGCACCGGAAACUGCCCCUUUUCCCAGAGGCUCUUCAUGAUUCUUUGGCUCAAAGGAGUUGUACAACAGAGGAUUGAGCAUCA	0.0586
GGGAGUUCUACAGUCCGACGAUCUCAGAUAAUUCAAGAUUUCCACUUGCAGUUGUAGAAGAACCAAUUACAGUGGAAGUGGCUUUCCGAAACCCUUUGAAAGUUCUACUUUUGUUGACUGAUUUGUCAUUGCUUUGGAAGUUUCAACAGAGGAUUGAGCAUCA	0.161

Study 2
Target: ABI1, truncated, D143A, DHFR fusion (Arabidopsis thaliana)
Technique: DHFR PCA, deep sequencing
Medium: yeast
Setting: methotrexate growth selection, single substitutions
Added: (+)-ABA 1.4 µM
Reference: wild-type fitted maximum
Reading: higher = stronger binding
Starting sequence: PYL1, truncated, DHFR fusion (Arabidopsis thaliana); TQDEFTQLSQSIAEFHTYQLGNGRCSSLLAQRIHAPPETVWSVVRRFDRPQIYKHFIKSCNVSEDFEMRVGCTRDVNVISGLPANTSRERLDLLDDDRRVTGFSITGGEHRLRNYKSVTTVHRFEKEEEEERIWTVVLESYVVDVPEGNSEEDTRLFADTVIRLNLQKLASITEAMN; partner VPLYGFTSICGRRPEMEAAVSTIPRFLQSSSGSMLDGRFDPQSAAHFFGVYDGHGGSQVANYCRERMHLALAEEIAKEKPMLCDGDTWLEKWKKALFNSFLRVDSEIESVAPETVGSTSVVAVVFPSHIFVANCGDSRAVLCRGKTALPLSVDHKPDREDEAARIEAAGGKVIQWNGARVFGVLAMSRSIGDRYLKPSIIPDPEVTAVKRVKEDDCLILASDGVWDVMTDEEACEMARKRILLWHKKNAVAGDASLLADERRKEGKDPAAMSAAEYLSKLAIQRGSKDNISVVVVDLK
Variant	relative binding score [%]
K168A	24
E128Q	71.2
T119C	30
N85W	51.8
D97V	60.6
R74F	-1.77
R99K	70.6
Q167F	4
R88K	66.7
R88G	-8.57
E38M	11

Study 3
Target: CCNB1, cyclin fold, Cln2 fusion (human)
Technique: yeast growth competition, sequencing
Medium: yeast
Setting: weak parent motif
Reference: not given
Reading: higher = stronger binding
Starting sequence: CDKN1A docking peptide (human); SKACRRLFGPVDS
Variant	normalised enrichment score
SKACRRLRGPVDS [F8R]	0.253
SKACRSLFGPVDS [R6S]	0.241
SKACRRLFGPVIS [D12I]	-0.0353
SAACRRLFGPVDS [K2A]	0.217
SKACRRLFGTVDS [P10T]	-0.142
SKACRRLFLPVDS [G9L]	0.191
SKACRRAFGPVDS [L7A]	0.39
SKAFRRLFGPVDS [C4F]	-0.11
SKACRRLFGPMDS [V11M]	0.288
SKACRRLFGCVDS [P10C]	0.803
SKACRRIFGPVDS [L7I]	0.326
SKACRRLFSPVDS [G9S]	0.237
SKACRFLFGPVDS [R6F]	0.575
SKACFRLFGPVDS [R5F]	-0.179
SKACRRLFGPVMS [D12M]	0.0166
SKACRRLFGPIDS [V11I]	0.277
SKAMRRLFGPVDS [C4M]	0.0271
SKACRRLFGNVDS [P10N]	0.351
SKCCRRLFGPVDS [A3C]	0.95
SKACRRLFVPVDS [G9V]	0.426
SQACRRLFGPVDS [K2Q]	0.291
SKACDRLFGPVDS [R5D]	-0.611
SKACRRLFGSVDS [P10S]	0.2
SKACRRLFNPVDS [G9N]	0.348
SKACRRLQGPVDS [F8Q]	0.0272

Study 4
Target: Histone acetyltransferase KAT6A, winged helix 1, GST fusion (KAT6A, Homo sapiens, UniProt Q92794, residues 1-85)
Technique: protein binding microarray
Molecule type: double-stranded DNA, one strand shown
Medium: in vitro
Tested at: not given
Setting: 8-mer, flanks averaged, mean of 2 arrays, mostly near background
Reference: not given
Reading: higher = stronger binding
Residues (chain): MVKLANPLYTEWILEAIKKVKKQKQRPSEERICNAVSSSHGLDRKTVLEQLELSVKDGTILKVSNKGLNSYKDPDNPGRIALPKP
Strand	E-score
ATAGTCGG	0.047
ATATGTCC	-0.0303
GACCCTTA	0.0829
CCCCCACC	-0.0694
ATGAAAAC	0.0151
GCTACTCA	-0.0478
GCCCTGAA	-0.0348
ATTCTGCG	0.145
AACGAAAA	-0.127
AACATTCC	-0.00344
GGATAAAC	0.00263
ATATCATA	-0.074
CGGGAACC	0.361
CTATGTCA	-0.198
TATATATA	-0.105
GCTCTCAA	-0.0185
CCACGACC	-0.154
CCAAAAGG	-0.225
CTGGTCTA	-0.18
CTCTTGAC	-0.0596
AGACCGTC	0.203
GGATCCAC	0.0854
ACATAGTA	-0.0632
ATACAGTC	-0.147
CTCATTGC	-0.278

Study 5
Target: MAFG, bZIP domain (human)
Technique: DHFR protein complementation
Medium: yeast
Setting: single substitutions, most at no-binding floor
Reference: wild-type JUN-FOS pair
Reading: higher = stronger binding
Starting sequence: JUN, bZIP domain (human); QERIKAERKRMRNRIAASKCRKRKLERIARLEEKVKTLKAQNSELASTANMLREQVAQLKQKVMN; partner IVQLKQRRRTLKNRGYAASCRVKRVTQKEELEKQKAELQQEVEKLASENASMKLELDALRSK
Variant	binding fitness
L59H	-1.41 natural log
Q55W	-1.55 natural log
E32W	-1.29 natural log
T37R	-1.45 natural log
M51K	-1.37 natural log
K36T	-1.46 natural log
V56G	-1.5 natural log
I28K	-1.46 natural log
K39T	-1.33 natural log
S43C	-1.31 natural log
M51W	-1.45 natural log
A29Q	-1.53 natural log
K36R	-1.34 natural log
T37Q	-1.5 natural log
K39P	-1.5 natural log
E44W	-1.45 natural log
L38H	-1.49 natural log
L31M	-1.44 natural log
V56T	-1.47 natural log
S43Q	-1.27 natural log
R53T	-1.57 natural log
A57L	-1.27 natural log
A29W	-1.47 natural log
A46G	-1.47 natural log

Further values, each from its own experiment
Molecule	target	assay	system	conditions	how to read	endpoint	result
PhoQ, residues 284 288 289 292 302 303 SIHLQL	PhoP, residues 12 14 15 18 19 HEGLL (Escherichia coli, UniProt P23836)	Sort-seq, refers to: YFP reporter	E. coli	PhoQ-PhoP variant library, added: 10 µM Mg2+	reference: high Mg2+ state, higher = stronger signaling	fold induction	10.8

Repeated from above (study 5):
Variant	binding fitness
V56G	-1.5 natural log
I28K	-1.46 natural log
K39T	-1.33 natural log
S43C	-1.31 natural log
M51W	-1.45 natural log
A29Q	-1.53 natural log
K36R	-1.34 natural log
T37Q	-1.5 natural log
K39P	-1.5 natural log
E44W	-1.45 natural log
